Results collected from several papers.
Every numbered part comes from another study and shows a few of its results, in no order.
UniProt Q00526, sequence (whole entry, looked up): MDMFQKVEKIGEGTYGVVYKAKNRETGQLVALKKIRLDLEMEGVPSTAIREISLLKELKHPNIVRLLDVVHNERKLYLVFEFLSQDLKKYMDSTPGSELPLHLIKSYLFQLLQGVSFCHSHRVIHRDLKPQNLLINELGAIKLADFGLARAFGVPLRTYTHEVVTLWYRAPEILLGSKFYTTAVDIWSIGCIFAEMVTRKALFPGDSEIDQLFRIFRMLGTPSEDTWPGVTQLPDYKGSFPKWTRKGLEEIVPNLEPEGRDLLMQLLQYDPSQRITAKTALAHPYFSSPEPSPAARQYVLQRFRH
UniProt P57058, sequence (whole entry, looked up): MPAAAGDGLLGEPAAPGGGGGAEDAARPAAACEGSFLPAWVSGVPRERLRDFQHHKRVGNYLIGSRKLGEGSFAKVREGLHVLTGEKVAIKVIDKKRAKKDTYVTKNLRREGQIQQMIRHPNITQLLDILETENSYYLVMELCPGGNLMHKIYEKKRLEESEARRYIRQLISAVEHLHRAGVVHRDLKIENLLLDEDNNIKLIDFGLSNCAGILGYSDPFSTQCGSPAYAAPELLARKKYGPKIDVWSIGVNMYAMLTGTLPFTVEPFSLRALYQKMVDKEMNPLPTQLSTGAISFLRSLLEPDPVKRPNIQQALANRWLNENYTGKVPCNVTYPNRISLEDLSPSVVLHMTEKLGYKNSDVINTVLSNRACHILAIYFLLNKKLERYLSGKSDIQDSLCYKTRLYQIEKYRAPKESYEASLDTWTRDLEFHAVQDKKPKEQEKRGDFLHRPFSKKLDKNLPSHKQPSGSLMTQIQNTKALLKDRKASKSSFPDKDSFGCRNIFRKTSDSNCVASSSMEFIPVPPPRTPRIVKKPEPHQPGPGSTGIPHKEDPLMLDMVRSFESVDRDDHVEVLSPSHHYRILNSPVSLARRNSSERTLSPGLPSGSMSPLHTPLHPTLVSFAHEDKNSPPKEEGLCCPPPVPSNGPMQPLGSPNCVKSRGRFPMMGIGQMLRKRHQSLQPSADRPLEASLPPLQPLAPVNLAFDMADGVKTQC
UniProt P15735, sequence (whole entry, looked up): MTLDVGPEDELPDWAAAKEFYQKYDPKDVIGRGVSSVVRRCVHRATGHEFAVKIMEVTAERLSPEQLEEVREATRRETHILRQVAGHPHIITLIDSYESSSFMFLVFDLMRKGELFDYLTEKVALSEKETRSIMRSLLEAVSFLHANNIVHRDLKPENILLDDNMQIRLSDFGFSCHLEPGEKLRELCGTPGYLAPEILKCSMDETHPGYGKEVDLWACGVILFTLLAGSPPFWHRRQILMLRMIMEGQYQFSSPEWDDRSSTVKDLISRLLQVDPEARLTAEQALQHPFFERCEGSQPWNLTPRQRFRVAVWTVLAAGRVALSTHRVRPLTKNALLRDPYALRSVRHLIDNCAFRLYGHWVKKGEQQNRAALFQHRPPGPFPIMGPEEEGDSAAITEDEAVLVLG
UniProt O15264, sequence (whole entry, looked up): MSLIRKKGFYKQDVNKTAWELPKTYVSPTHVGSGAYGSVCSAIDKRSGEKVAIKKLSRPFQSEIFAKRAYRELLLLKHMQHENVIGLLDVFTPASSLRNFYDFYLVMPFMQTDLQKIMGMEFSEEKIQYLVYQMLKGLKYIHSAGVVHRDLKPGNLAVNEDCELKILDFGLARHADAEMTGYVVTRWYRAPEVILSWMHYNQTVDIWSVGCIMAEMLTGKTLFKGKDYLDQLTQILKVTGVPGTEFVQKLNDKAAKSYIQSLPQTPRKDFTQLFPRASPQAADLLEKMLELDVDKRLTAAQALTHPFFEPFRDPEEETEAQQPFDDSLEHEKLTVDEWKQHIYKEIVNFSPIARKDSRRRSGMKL
UniProt P06241, sequence (whole entry, looked up): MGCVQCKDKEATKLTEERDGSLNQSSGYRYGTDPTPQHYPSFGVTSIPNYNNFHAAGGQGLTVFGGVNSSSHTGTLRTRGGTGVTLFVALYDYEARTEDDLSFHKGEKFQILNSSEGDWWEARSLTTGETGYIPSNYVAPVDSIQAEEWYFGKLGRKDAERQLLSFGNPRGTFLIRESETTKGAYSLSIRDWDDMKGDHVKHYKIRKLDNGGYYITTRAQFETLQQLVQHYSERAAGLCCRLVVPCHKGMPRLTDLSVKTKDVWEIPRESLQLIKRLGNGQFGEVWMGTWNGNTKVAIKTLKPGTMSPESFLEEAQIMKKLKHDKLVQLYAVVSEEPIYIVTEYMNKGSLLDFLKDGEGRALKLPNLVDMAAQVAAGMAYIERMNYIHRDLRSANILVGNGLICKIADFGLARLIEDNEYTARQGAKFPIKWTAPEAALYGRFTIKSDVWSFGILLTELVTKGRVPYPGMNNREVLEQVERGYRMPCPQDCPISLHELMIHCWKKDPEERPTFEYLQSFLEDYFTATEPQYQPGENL

Series 1 — effect on: cell-free assay; method: competition with immobilised ligand; concentration: 1 µM
SMILES: C[C@H](NC(=O)c1cnc2n1[C@](C)(Cc1ccc(C#N)cc1)C(=O)N2c1cc(Cl)c(F)c(Cl)c1)C(=O)NC1(c2ccccn2)CC1
target | remaining binding
Epidermal growth factor receptor (EGFR, Homo sapiens, UniProt P00533) | 100%
Phosphorylase b kinase gamma catalytic chain, liver/testis isoform (PHKG2, Homo sapiens, UniProt P15735) | 100%
Serine/threonine-protein kinase pim-3 (PIM3, Homo sapiens, UniProt Q86V86) | 100%
Cyclin-dependent kinase 3 (CDK3, Homo sapiens, UniProt Q00526) | 100%
Mitogen-activated protein kinase 13 (MAPK13, Homo sapiens, UniProt O15264) | 100%
Hormonally up-regulated neu tumor-associated kinase (HUNK, Homo sapiens, UniProt P57058) | 100%
Receptor tyrosine-protein kinase erbB-2 (ERBB2, Homo sapiens, UniProt P04626) | 100%
Tyrosine-protein kinase Fyn (FYN, Homo sapiens, UniProt P06241) | 70%

Series 2 — host: human; matrix: microsomes or S9; concentration: 2 µM; time: 0.5 h
SMILES | remaining compound [%]
CCN(CC)C(=O)c1cn(C2CCC23CCN(S(=O)(=O)CC)CC3)nn1 (stereo not drawn) | 88.3
CC1CCN(C=C(S(=O)(=O)c2ccccc2)S(=O)(=O)c2ccccc2)CC1 | 0.629
CCCOc1ccc2c(c1)C(O)CC1(CCNCC1)O2 (stereo not drawn) | 72.5
Cc1cccn2c(=O)c(/C=N/O)c(NCc3ccco3)nc12 | > 99
CC(C)(C)Nc1oc(-c2ccc(S(=O)(=O)N3CCOCC3)o2)nc1C#N | 94.3
Cc1ccccc1-c1cccc2nc(-c3ccccc3)nn12 | 34.1
CCCn1c(=O)c2ccc(C(=O)NC3CCCC3)cc2n2c(=O)n(Cc3ccc(C)cc3)nc12 | 70.1
O=C(O)C1CC=CCC1C(=O)/N=c1\[nH]ccs1 (stereo not drawn) | 84
CC(C)C(C)(NC(=O)c1ccccc1C#Cc1ccccc1)C(N)=O (stereo not drawn) | 80
COc1cc2c(cc1OC)C1(c3ccoc3)OC(=O)C(=O)N1CC2 (stereo not drawn) | 3.15
Cc1ccc(C)c(CNc2cc(-n3ccnc3)ncn2)c1 | 43.5

Series 3 — effect on: enzyme activity; action: inhibitor; concentration: 0.5 µM; reference: control
Target: G protein-coupled receptor kinase 6 (GRK6, Homo sapiens, UniProt P43250)
UniProt P43250, sequence (whole entry, looked up): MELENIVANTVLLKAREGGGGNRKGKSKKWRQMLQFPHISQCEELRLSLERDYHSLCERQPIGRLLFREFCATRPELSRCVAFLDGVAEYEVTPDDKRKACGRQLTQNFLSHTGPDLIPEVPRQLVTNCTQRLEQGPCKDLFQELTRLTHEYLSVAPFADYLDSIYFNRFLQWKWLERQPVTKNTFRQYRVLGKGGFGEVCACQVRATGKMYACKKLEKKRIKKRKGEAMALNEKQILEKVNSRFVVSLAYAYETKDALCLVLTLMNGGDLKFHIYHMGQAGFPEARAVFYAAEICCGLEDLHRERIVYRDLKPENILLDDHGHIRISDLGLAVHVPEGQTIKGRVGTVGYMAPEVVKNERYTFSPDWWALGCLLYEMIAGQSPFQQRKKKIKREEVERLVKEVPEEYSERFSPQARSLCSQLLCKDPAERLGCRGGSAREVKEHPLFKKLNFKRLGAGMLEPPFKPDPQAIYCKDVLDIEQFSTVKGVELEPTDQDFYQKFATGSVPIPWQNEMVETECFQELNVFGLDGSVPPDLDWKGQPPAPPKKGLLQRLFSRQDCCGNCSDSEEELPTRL
Compound | remaining activity [%]
CN(C)C[C@H]1CCn2c(c(C3=C(c4cn(C)c5ccccc45)C(=O)NC3=O)c3ccccc32)C1 | 66.4
N#Cc1c(NC(=O)c2cccc3ccccc23)sc2c1CCCC2 | 108
COc1cc2ncnc(Nc3cccc(Cl)c3)c2cc1OC | 96.8
CCN(CC)C(=O)c1ccc(Nc2nc(OCC3CCCCC3)c3[nH]cnc3n2)cc1 | 99.5
O=c1cc(-c2cccc3c2Sc2ccccc2S3)oc(N2CCOCC2)c1 | 83
COc1cc2ncnc(Nc3ccc(O)c(Br)c3)c2cc1OC | 104
O=C1c2ccccc2-c2n[nH]c3cccc1c23 | 90.1
O=C(Nc1cccc(Nc2nccc(Nc3cccc(C(F)(F)F)c3)n2)c1)C1CC1 | 93.8

Series 4 — cell line: Huh-7; concentration: 10 µM; time: 24 h
Structure (SMILES) | viability [%]
C#C[C@]1(O)CC[C@H]2[C@@H]3CCC4=Cc5oncc5C[C@]4(C)[C@H]3CC[C@@]21C | 85.3
CC(=O)NS(=O)(=O)c1ccc(NC(=O)c2ccccc2C(=O)O)cc1 | 100
CNC1(C)C2CCC(C2)C1(C)C (stereo not drawn) | 81.8
COc1ccc(C(=O)c2ccccc2)c(O)c1 | 97.1
COc1ccc2c(c1)c(CC(=O)O)c(C)n2C(=O)c1ccc(Cl)cc1 | 95.6
CCCCCC(C)N (stereo not drawn) | 103
CN(C)CCOC(c1ccc(Cl)cc1)c1ccccn1 (stereo not drawn) | 102
CC(=O)/N=c1/sc(S(N)(=O)=O)nn1C | 98.3
CC(=O)Nc1ccc(S(=O)(=O)Nc2ccc([N+](=O)[O-])cc2)cc1 | 97

Some of these lines once more (series 3):
Compound | remaining activity [%]
CN(C)C[C@H]1CCn2c(c(C3=C(c4cn(C)c5ccccc45)C(=O)NC3=O)c3ccccc32)C1 | 66.4
O=c1cc(-c2cccc3c2Sc2ccccc2S3)oc(N2CCOCC2)c1 | 83
COc1cc2ncnc(Nc3cccc(Cl)c3)c2cc1OC | 96.8
O=C(Nc1cccc(Nc2nccc(Nc3cccc(C(F)(F)F)c3)n2)c1)C1CC1 | 93.8
COc1cc2ncnc(Nc3ccc(O)c(Br)c3)c2cc1OC | 104
N#Cc1c(NC(=O)c2cccc3ccccc23)sc2c1CCCC2 | 108
